# Earlier results, collected from citations in different studies.
# Compare with care: the assays were run in different laboratories. Numbers after ± are the reported error.
# Sequence of UniProt P51817 (whole entry, looked up): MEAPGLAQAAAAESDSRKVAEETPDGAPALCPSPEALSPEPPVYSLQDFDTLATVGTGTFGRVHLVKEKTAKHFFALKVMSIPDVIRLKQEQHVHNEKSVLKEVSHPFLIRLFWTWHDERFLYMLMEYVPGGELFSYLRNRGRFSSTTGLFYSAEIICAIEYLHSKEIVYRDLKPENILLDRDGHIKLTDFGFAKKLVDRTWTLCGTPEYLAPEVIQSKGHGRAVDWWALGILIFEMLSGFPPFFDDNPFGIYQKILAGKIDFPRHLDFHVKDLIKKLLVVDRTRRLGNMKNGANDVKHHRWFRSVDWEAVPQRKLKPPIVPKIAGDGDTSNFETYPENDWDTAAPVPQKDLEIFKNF
# Sequence of UniProt P42336 (whole entry, looked up): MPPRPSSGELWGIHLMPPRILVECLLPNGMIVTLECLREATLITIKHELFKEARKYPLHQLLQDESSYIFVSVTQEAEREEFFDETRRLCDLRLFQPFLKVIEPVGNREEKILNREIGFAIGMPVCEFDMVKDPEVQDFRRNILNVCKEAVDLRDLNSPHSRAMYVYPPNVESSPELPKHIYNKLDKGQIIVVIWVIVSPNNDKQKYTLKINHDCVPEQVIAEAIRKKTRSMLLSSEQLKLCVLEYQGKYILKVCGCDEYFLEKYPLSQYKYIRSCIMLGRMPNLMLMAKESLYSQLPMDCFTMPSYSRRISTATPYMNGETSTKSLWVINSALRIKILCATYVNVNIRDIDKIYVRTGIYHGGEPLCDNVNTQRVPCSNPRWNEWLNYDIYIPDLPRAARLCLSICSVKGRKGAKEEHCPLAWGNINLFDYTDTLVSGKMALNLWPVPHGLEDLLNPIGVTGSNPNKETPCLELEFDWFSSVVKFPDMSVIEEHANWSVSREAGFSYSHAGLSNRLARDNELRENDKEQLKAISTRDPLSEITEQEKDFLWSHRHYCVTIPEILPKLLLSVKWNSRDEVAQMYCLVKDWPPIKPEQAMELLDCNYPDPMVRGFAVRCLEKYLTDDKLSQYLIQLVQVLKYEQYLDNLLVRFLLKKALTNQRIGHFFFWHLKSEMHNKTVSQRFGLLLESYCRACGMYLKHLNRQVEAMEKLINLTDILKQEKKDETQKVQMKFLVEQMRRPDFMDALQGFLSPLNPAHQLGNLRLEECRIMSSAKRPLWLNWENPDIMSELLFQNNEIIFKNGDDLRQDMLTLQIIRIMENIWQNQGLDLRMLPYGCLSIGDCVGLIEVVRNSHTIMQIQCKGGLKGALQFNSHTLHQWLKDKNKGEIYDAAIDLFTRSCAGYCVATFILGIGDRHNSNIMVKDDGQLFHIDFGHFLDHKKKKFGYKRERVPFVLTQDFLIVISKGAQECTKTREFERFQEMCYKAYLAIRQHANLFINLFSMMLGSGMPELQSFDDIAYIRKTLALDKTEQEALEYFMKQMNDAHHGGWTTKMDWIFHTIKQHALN
# Sequence of UniProt Q9BZ95 (whole entry, looked up): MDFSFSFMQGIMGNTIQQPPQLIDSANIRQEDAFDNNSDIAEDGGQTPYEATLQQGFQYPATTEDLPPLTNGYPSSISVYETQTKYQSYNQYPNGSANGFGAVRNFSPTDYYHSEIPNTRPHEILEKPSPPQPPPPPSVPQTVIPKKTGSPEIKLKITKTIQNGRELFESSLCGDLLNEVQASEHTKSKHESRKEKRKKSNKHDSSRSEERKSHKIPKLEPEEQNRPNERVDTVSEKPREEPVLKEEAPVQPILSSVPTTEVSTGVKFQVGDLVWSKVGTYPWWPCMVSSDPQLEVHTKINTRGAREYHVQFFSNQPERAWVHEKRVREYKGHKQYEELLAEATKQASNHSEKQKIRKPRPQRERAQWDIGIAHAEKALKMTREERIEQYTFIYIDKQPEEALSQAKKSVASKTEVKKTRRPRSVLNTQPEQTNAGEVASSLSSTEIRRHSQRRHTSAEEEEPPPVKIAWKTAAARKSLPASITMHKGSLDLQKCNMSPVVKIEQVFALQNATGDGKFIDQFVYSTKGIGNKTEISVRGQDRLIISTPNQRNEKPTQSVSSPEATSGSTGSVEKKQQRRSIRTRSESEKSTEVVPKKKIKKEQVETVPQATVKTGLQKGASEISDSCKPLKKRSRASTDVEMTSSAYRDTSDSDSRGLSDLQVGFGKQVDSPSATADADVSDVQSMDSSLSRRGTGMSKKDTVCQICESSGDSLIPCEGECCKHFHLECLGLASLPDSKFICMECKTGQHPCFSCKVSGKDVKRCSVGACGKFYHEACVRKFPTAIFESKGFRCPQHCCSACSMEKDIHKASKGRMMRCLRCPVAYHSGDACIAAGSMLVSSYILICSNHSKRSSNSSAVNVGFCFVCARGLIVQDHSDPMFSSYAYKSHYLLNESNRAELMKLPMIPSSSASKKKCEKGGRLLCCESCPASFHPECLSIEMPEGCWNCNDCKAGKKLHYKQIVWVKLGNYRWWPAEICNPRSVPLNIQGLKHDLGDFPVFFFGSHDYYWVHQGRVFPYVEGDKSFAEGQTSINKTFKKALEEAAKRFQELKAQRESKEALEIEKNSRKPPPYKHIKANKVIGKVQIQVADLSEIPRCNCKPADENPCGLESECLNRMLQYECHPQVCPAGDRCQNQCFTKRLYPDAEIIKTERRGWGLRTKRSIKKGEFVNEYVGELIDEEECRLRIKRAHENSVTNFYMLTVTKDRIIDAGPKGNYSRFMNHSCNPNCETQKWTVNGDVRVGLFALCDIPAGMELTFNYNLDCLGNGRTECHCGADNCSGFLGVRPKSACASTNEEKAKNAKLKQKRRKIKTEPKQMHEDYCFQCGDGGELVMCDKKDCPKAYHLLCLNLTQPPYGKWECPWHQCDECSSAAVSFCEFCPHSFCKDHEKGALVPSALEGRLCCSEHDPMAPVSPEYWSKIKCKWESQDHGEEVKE
# Sequence of UniProt Q9UQB9 (whole entry, looked up): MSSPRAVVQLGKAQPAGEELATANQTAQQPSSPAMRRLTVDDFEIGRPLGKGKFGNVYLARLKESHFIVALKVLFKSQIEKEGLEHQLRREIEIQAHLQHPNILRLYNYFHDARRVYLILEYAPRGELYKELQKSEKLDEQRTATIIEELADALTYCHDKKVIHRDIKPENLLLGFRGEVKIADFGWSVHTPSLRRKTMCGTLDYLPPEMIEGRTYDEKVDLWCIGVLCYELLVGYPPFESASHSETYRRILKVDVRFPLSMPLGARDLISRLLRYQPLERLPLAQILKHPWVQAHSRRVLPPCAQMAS
Structure (SMILES),target or system,test,system,setting,how to read,quantity,value
Nc1cc(C(F)(F)F)c(-c2nc(N3CCOCC3)nc(N3CCOCC3)n2)cn1,"Aurora kinase C (AURKC, Homo sapiens, UniProt Q9UQB9)",enzyme activity,,10 µM,relative to: untreated,remaining activity,80%
C[C@@H](O)[C@H]1C(=O)N2C(C(=O)O)=C(S[C@@H]3CN[C@H](C(=O)N(C)C)C3)[C@H](C)[C@H]12,Escherichia coli,,ATCC 25922,,,MIC,0.008 to 0.06 µg/mL
Oc1ccc(-c2nc(-c3ccc(OC4CCCC4)cc3)no2)cc1,Escherichia coli,,ATCC 25922,,,MIC,> 128 µg/mL
CO[C@H]1/C=C/O[C@@]2(C)Oc3c(C)c(O)c4c(O)c(c(/C=N/N5CCN(C)CC5)c(O)c4c3C2=O)NC(=O)/C(C)=C\C=C\[C@H](C)[C@H](O)[C@@H](C)[C@@H](O)[C@@H](C)[C@H](OC(C)=O)[C@@H]1C,Escherichia coli,,ATCC BAA-2469,,,MIC,4 µg/mL
C[C@H]1c2cccc(O)c2C(=O)C2=C(O)[C@]3(O)C(=O)C(C(N)=O)=C(O)[C@@H](N(C)C)[C@@H]3[C@@H](O)[C@@H]21,Mycolicibacterium smegmatis,,mc2155,,,MIC,0.2 µg/mL
FC(F)(F)c1ccc(Oc2ccc(-c3noc(-c4ccc5[nH]ccc5c4)n3)cc2)cc1,Veillonella sp.,,HM-49,,,MIC,> 128 µg/mL
Cc1cc(NC(=O)c2cccc(NC(=O)/C=C/CN(C)C)c2)ccc1Nc1nccc(-c2cccnc2)n1,"PRKX (Homo sapiens, UniProt P51817)","enzyme activity, inhibitor",,1 µM,relative to: vehicle,remaining activity,0%
CCN(c1cc(-c2ccc(CN3CCOCC3)cc2)cc(C(=O)NCc2c(C)cc(C)[nH]c2=O)c1C)C1CCOCC1,"NSD3 (Homo sapiens, UniProt Q9BZ95)","enzyme activity, inhibitor",,1 µM,,inhibition,9 ± 8%
C=CC(=O)N1CCC(C(=O)NCC(=O)N2CCN(c3nc(-c4cnc(N)nc4C(F)F)nc(N4CCOCC4)n3)CC2)CC1,"PIK3CA (Homo sapiens, UniProt P42336)",kinase activity,,1 µM,,remaining activity,0.4%
Cc1c(C#N)cccc1[C@@H](C)Nc1nnc(C)c2cnc(N3CCOCC3)cc12,NCI-H1975,"ERK phosphorylation, In-Cell Western, refers to: phospho-ERK",,,,IC50,39.8 ± 15 nM
NNC(=O)c1ccncc1,Mycolicibacterium smegmatis,,mc2155,,,MIC,8 µg/mL
CC1(C)S[C@@H]2[C@H](NC(=O)[C@H](N)c3ccccc3)C(=O)N2[C@H]1C(=O)O,Klebsiella pneumoniae,,clinical isolate RKI-No_95/16,,,MIC,> 16 µg/mL
COc1ccccc1Oc1cccc(CN2CCC(NC(=O)C(CCN3CCCC3)c3ccccc3)CC2)c1 (stereo not drawn),human CCR8 F84A mutant (TM2),"IP accumulation, agonist",,,,EC50,4.8 nM
CNC(C)C1CCC(N)C(OC2C(N)CC(N)C(OC3OCC(C)(O)C(NC)C3O)C2O)O1 (stereo not drawn),Escherichia coli,,ATCC BAA-2469,,,MIC,> 256 µg/mL
CN[C@H](CC(C)C)C(=O)N[C@H]1C(=O)N[C@@H](CC(N)=O)C(=O)N[C@H]2C(=O)N[C@H]3C(=O)N[C@H](C(=O)N[C@H](C(=O)O)c4cc(O)cc(O)c4-c4cc3ccc4O)[C@H](O)c3ccc(c(Cl)c3)Oc3cc2cc(c3O[C@@H]2O[C@H](CO)[C@@H](O)[C@H](O)[C@H]2O[C@H]2C[C@](C)(N)[C@H](O)[C@H](C)O2)Oc2ccc(cc2Cl)[C@H]1O,Streptococcus pyogenes,,SSI-9,,,MIC,0.34 µM
COc1ccccc1Oc1cccc(CN2CCC(NC(=O)C3CC(=O)Nc4ccccc43)CC2)c1 (stereo not drawn),human CCR8,"IP accumulation, agonist",,,,EC50,> 10000 nM
CCc1c(Cl)c(O)c(Cl)c(O)c1C(=O)O[C@H]1[C@H](O)[C@H](OC)[C@H](OC/C2=C\C=C\C[C@H](O)/C(C)=C/[C@H](CC)[C@@H](O[C@@H]3OC(C)(C)[C@@H](OC(=O)C(C)C)[C@H](O)[C@@H]3O)/C(C)=C/C(C)=C/C[C@@H]([C@@H](C)O)OC2=O)O[C@@H]1C,Bifidobacterium longum,,HM-846,,,MIC,< 0.01 µg/mL
CO[C@H]1/C=C/O[C@@]2(C)Oc3c(C)c(O)c4c(O)c(c(/C=N/N5CCN(C)CC5)c(O)c4c3C2=O)NC(=O)/C(C)=C\C=C\[C@H](C)[C@H](O)[C@@H](C)[C@@H](O)[C@@H](C)[C@H](OC(C)=O)[C@@H]1C,Mycolicibacterium smegmatis,,mc2155,,,MIC,0.8 µg/mL
CCN1CCN(C(=O)N[C@@H](C(=O)N[C@@H]2C(=O)N3[C@@H]2SC(C)(C)[C@@H]3C(=O)O)c2ccccc2)C(=O)C1=O,Escherichia coli,,ATCC 25922,,,MIC,1 to 4 µg/mL
CNC(C)C1CCC(N)C(OC2C(N)CC(N)C(OC3OCC(C)(O)C(NC)C3O)C2O)O1 (stereo not drawn),Enterobacter cloacae,,clinical isolate RKI-No_361/13,,,MIC,4 µg/mL
Oc1ccc(-c2nc(-c3ccc(OC4CCCC4)cc3)no2)cc1,Veillonella sp.,,HM-49,,,MIC,> 128 µg/mL
NCC[C@H](O)C(=O)N[C@@H]1C[C@H](N)[C@@H](O[C@H]2O[C@H](CN)[C@@H](O)[C@H](O)[C@H]2O)[C@H](O)[C@H]1O[C@H]1O[C@H](CO)[C@@H](O)[C@H](N)[C@H]1O,Escherichia coli,,ATCC 25922,,,MIC,0.5 to 4 µg/mL
C[C@H]1COc2c(N3CCN(C)CC3)c(F)cc3c(=O)c(C(=O)O)cn1c23,Mycolicibacterium smegmatis,,mc2155,,,MIC,0.25 µg/mL
CN(C)C(=O)c1cc2cnc(Nc3ccc(N4CCNCC4)cn3)nc2n1C1CCCC1,,,human,"600 mg single dose, together with: rifampicin 600 mg daily for 14 days",relative to: compound alone,decrease in Cmax,81%
C[C@H]1COCCN1c1nc(-c2cnc(N)cc2C(F)F)nc(N2CCOCC2)n1,T24,,,,,GI50,593 nM
CO/N=C(\C(=O)N[C@@H]1C(=O)N2C(C(=O)O)=C(CSc3nc(=O)c(=O)[nH]n3C)CS[C@H]12)c1csc(N)n1,Escherichia coli,,ATCC 25922,,,MIC,0.03 to 0.12 µg/mL
O=C(N[C@H](CO)[C@H](O)c1ccc([N+](=O)[O-])cc1)C(Cl)Cl,Bacillus cereus,,,,,MIC,1 to 4 µg/mL
CCc1c(Cl)c(O)c(Cl)c(O)c1C(=O)O[C@H]1[C@H](O)[C@H](OC)[C@H](OC/C2=C\C=C\C[C@H](O)/C(C)=C/[C@H](CC)[C@@H](O[C@@H]3OC(C)(C)[C@@H](OC(=O)C(C)C)[C@H](O)[C@@H]3O)/C(C)=C/C(C)=C/C[C@@H]([C@@H](C)O)OC2=O)O[C@@H]1C,Enterococcus faecium,,119-39A vancomycin-susceptible,,,MIC,> 16 µg/mL
CC(C)(O/N=C(\C(=O)N[C@@H]1C(=O)N2C(C(=O)[O-])=C(C[n+]3ccccc3)CS[C@H]12)c1csc(N)n1)C(=O)O,Escherichia coli,,ATCC 25922,,,MIC,0.06 to 0.5 µg/mL
CC(=O)O[C@H]1C[C@@]2(C)[C@@H](C[C@@H](O)[C@H]3[C@@]4(C)CC[C@@H](O)[C@@H](C)[C@@H]4CC[C@@]32C)/C1=C(\CCC=C(C)C)C(=O)O,Mycolicibacterium smegmatis,,mc2155,,,MIC,32 µg/mL

# Repeated from above:
Structure (SMILES),target or system,test,system,setting,how to read,quantity,value
C[C@H]1COCCN1c1nc(-c2cnc(N)cc2C(F)F)nc(N2CCOCC2)n1,T24,,,,,GI50,593 nM
CO/N=C(\C(=O)N[C@@H]1C(=O)N2C(C(=O)O)=C(CSc3nc(=O)c(=O)[nH]n3C)CS[C@H]12)c1csc(N)n1,Escherichia coli,,ATCC 25922,,,MIC,0.03 to 0.12 µg/mL
